# Results of several laboratories.
# Numbered parts are unrelated; each lists some results of a single study. Changes are numbered by the printed parent chain.

# Study 1
# Target: RING finger protein unkempt homolog, zinc fingers 1-6, SBP tag (UNK, Homo sapiens, UniProt Q9C0B0, residues 30-357)
# Chain of UniProt Q9C0B0 (30-357, looked up): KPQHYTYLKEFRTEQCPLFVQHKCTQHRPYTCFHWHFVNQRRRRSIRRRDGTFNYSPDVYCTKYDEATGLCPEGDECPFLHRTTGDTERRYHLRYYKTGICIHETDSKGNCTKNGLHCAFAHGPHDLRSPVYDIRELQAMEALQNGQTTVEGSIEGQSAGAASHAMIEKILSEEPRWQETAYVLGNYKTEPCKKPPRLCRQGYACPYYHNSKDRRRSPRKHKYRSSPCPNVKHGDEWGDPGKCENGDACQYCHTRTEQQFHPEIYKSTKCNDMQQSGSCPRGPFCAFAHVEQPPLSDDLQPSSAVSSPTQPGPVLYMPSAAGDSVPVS
# Technique: RNA Bind-n-Seq
# Form: RNA
# Matrix: in vitro
# Tested at: 100 nM
# Notes: RNA with constant flanks, vertebrate orthologous sites, ends assumed
# Relative to: input RNA pool
# Reading: higher = stronger binding
# Shared flanks, not repeated: GGGAGUUCUACAGUCCGACGAUC … CAACAGAGGAUUGAGCAUCA
Sequence,bound/input enrichment
CCUACAAUAAUGAAAACCUACAAGAAUUUUUUUAUUUUUCAUUUUCCCCUUAGGCAUAUUUAGUAUUUUUUCCCCCAGGCAGAUCAUUCUGAGUGUGCGUGUGUGUGUGCACAUGUUACA,2.82 ratio
UGUCCUUUCUUACUGUCCCCAGCCAGGGCCGGGGACCGGUGUUUCACUGAGGACCUGCAUUAGAAACAUUUUUUAAAUUGUUGUACAGGAAGAGAUGUGUCUAAAACAGCAUCUUAAAGC,0.966 ratio
AUUUUUACAAUCUUACUGUAUUUUCAAACAAUAGGGAACUUUUUUUUUUUUUUUACAGUUUAGUGUAUCUGGUUUCUACAUGGAAGACUUAAGUUCAUGCUUAUUGCUAAAUGUGGUCUU,0.759 ratio
AUGCAUUAUUUUCCGACCAUUUUUAGGAAGUUUAUCAUCUUGUGAAUCUGUGUGUGCAUGUGUGUUUGUGUGUGUGUGUGUGUGAUUAGAAUAAAGAACUAUGAUAUAAAGUGUAUAUUU,1.02 ratio
UUGUACUACAAAAAAUCAUCCUAGUUUUUUAAGCUAACUACAGUGAUAACUAGUCUGUGCUAGUAGAAUCAUUUACUAUUACUUUUUAAAUUAUCUGCUUUGUCUGAUACCUGAAACCAC,0.945 ratio
UGAAAAUAGCUUCUGCUCCAUUGAGAGUAAAAAUAGUCCCAUGAAUAGAAAACUCCUAAUGAACUAUUUUUUAAAUAAAAAACGUUAAAUUUUGUAAAUCACCUGCUGCCACAAUACAAC,0.868 ratio
AGAUUUGGACCUUGGAGCAGAAGCAGCAGUGAGCAACAGUAAAGCAAGCUUGUAAAAUUAUAGCCCCAUGCAGCUGCACAACCACAGAACGGUGAUGCAACAGCUACAUGCAAGUCUUUA,0.404 ratio
UUCAGGCACAACUGACUGGUUCACAGCAUCCCUUACAUAGUUACCUAUCGAGUGCAAGUAUUGGCAGUUUUCAGGAAACAUCUAGGCAGUCGUCUUUAUCCUGUAGUUCAGUCCGAGAUU,0.694 ratio

# Study 2
# Target: Fragile X messenger ribonucleoprotein 1, C-terminal low-complexity region (Fmr1, Mus musculus, UniProt P35922)
# Technique: RNA Bind-n-Seq
# Form: RNA
# Matrix: in vitro
# Tested at: 200 nM
# Notes: whole 134-nt RNA, ends assumed
# With: 150 mM LiCl
# Relative to: input library
# Reading: higher = stronger binding
# Library: 7-deaza-guanosine replaces G
# Shared flanks, not repeated: GGGAGUUCUACAGUCCGACGAUC … UGGAAUUCUCGGGUGUCAAGG
Sequence,log2 enrichment
UCAAGUCCUGUGCUACACAUCGUAUGUACCGAAUCGGCCCGGGGCCCGGCCCGGGAAAGUAUUAUGUUACGCCGUUCGGAUCUGCACUUC,-0.687
UGCAGAUUGAUGAGUAUGAUCACUCCAAGCCCAUCCAGGGGCAACAGAAGAAGCCCUUUGAGGUGCACUGGAGGAAGCACACCCUGUCCU,-1.82
GUCCUGUGCUACACAUCGUAUGUACCGAAUCGGGGCCCCCGGCCCCCGGGCCCCCGGGAAAGUAUUAUGUUACGCCGUUCGGAUCUGCAC,-2.79
UCCUGUGCUACACAUCGUAUGUACCGAAUCGGGGUUUUUGGGGAGGGGUUUUUUUGGGGAAAGUAUUAUGUUACGCCGUUCGGAUCUGCA,-0.0103
UGGGAGGUGGAUUUUGUUUAUUUUUUUAGCUCAUUUCCUGGGGUGGGAAUUUUUUUUUAAUAUGUGUCAUGAAUAAAGUUGUUUUUGAAA,-0.0781
AGUCCUGUGCUACACAUCGUAUGUACCGAAUCGGCCCCCGGCCCCCGGGGCCCCCGGAAAGUAUUAUGUUACGCCGUUCGGAUCUGCACU,-2.54
ACCAUGCAGGUGGGCAUCUUUGCGAAGUGGGGCAAGGGGGGGAUAGGGAGGGGGGUAACACUUUGGGAACAGGUGGUCCCAGGUCGUUUC,1.08
CAAGUCCUGUGCUACACAUCGUAUGUACCGAAUCGGGGCCCGGGCCCGGCCCGGGAAAGUAUUAUGUUACGCCGUUCGGAUCUGCACUUC,-1.46

# Study 3
# Target: Interferon regulatory factor 7, full length, phosphomimetic (IRF7, Homo sapiens, UniProt Q92985, residues 1-503, S471D/S472D/S475D/S476D/S477D/S483D/S484D/S487D)
# Chain of UniProt Q92985 (whole entry, unmodified, looked up): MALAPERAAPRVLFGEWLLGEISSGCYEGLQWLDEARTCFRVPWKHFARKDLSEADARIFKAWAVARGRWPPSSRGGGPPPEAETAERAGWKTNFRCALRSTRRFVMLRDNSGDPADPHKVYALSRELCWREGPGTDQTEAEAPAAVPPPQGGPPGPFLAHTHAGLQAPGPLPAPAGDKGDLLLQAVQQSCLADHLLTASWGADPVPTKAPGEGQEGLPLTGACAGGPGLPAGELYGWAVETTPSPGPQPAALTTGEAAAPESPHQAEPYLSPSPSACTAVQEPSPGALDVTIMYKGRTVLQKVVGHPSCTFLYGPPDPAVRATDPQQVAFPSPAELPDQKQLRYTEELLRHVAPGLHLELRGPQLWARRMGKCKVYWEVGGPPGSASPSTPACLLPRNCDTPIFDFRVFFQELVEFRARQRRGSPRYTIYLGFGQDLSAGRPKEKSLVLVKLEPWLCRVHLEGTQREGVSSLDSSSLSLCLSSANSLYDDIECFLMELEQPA
# Technique: protein-binding microarray
# Form: double-stranded DNA, one strand shown
# Matrix: in vitro
# Tested at: 2200 nM top
# Notes: 60-bp whole probe
# With: salmon DNA 0.4 mg/ml
# Relative to: random background probes
# Reading: higher = stronger binding
# Shared flanks, not repeated: GCCTAGCAC … GTCTTGATTCGCTTGACGCTGCTG
Sequence,fitted relative affinity [z-score]
TCATTTTTTTTTTCATCACTGTGCTAG,2.41
TTAGGTTTCCTTAGCCTTTAGTGCTAG,0.64
TTAGATCTCCTTTTCCTTTAGTGCTAG,2.15
GACGATATCAGTCTGGAGACGTGCTAG,0.00111
TCAGGACTGGGTATCGGTTAGTGCTAG,-0.319
TTAGGACTGGGTATCGTTTAGTGCTAG,-0.12
TCATTTTGAGTTTTCCTACTGTGCTAG,2.32
TTAGATATCGGTTATCGATTAGTGCTA,0.334
TTAGGTTACCTTCTCCTTTAGTGCTAG,1.24
CTAGGTTTCCTTATCCTTTAGTGCTAG,2.13
TTAGATATCTGTCTCGATTAGTGCTAG,0.545
TTAGGTATTCTTATCCTTTAGTGCTAG,0.536
GACGGCCTCGGACTGGGGACGTGCTAG,-0.882
CCTCAGCTCCCTTTCTCTCTGTGCTAG,1.21
GACCAACTGGGGTATCGAGACGTGCTA,-0.461
TTAGGTTTCGGACTGGGTTTGTGCTAG,3.26
TTTGGTATCGACACTGGGTTAGTGCTA,0.655
AGTATGTTCCTTATTTAAGAGTGCTAG,0.975
CTTTAACTCATTTTCATTTTGTGCTAG,4.66

# Study 4
# Target: CCNB2, cyclin fold, Cln2 fusion (human)
# Technique: yeast growth competition, sequencing
# Matrix: yeast
# Notes: weak parent motif
# Relative to: not given
# Reading: higher = stronger binding
# Starting sequence: PKN2 docking peptide (human); DSTVTKLDFDLEP; partner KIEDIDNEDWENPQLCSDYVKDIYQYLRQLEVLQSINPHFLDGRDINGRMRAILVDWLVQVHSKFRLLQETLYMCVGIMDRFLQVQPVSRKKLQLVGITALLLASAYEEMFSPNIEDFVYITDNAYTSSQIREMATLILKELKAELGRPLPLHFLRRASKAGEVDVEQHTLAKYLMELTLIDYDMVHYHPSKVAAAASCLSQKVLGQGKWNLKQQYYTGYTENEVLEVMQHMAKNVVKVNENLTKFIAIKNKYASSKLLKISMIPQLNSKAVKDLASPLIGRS
Change,normalised enrichment score
T3A,0.235
L7A,-0.661
P13A,0.262
E12A,-0.178
D1A,-0.21
D8A,-0.214

# Further values, each from its own experiment
Substance,target,test,system,conditions,how to read,quantity,result
"PhoQ, residues 284 288 289 292 302 303 AAQSYM","PhoP, residues 12 14 15 18 19 SYFRT (Escherichia coli, UniProt P23836)","Sort-seq, refers to: YFP reporter",E. coli,"PhoQ-PhoP variant library, with: 10 µM Mg2+","relative to: high Mg2+ state, higher = stronger signaling",fold induction,1.02

# Excerpt of the above (study 3):
Sequence,fitted relative affinity [z-score]
AGTATGTTCCTTATTTAAGAGTGCTAG,0.975
TTAGATATCGGTTATCGATTAGTGCTA,0.334
TTAGATCTCCTTTTCCTTTAGTGCTAG,2.15
CTTTAACTCATTTTCATTTTGTGCTAG,4.66
